Experimental data from different studies.
Parts stem from different laboratories: compare values within a part only.

Series 1
Target: RNA binding protein fox-1 homolog 2, RRM domain, GST-SBP tag (RBFOX2, Homo sapiens, UniProt O43251-10, residues 100-194)
Technique: RNA Bind-n-Seq
Molecule type: RNA
Medium: in vitro
Tested at: 365 nM
Notes: natural RNA segment, single round, ends assumed
Relative to: no-protein control
Reading: higher = stronger binding
Quantity: RBNS enrichment (R)
Construct (chain): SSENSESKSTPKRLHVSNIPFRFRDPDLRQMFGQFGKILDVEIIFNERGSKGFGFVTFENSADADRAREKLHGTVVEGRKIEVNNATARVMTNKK
Sequence = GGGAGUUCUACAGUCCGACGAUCGUGGGAGGUCAAGUGGGGAAGUUGGUGAAUGUGGAAUAACUUACCUUUGUGCUCCACUUAAACCAGAUGUGUUGCAGCUUUCCUGACAUGCAAGGAUCUACUUUAAUUCCUGGAAUUCUCGGGUGCCAA; result = 0.948
Sequence = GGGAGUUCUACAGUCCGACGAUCAUGUUAGGAUCCUUCAACAGUUUCUCAGAUGCCAGCUAUGGCUGGCAUCCAGUAUGGUGGUGUAAUGGAAGUGUACUACUAGCACUACUACAUCAGGUCAGCACAGAUUAUGGAAUUCUCGGGUGCCAA; result = 0.299
Sequence = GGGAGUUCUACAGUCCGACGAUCAGGGAUGAUGCCUAGCAUUGGGGCAGCAUCUGCUCAGCACAUGGAAAGGGACCUGGUUCCAUCUCCCCUGGGCAGGAGUUGGUCCAGCCUCCUCCCAGACCCAGCUGGUGUGGAAUUCUCGGGUGCCAA; result = 0.307
Sequence = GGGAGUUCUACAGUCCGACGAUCCUAGGGGUCACUUAUCUCUAUUACGUAAUCUAACUGGAAUAAUUUCCUAGAAUUCUUACUAGUGAAAUCUUACCCAAGUAAAACAAUUUAUUAUUUUGAAUCCAAAUGAAUGGAAUUCUCGGGUGCCAA; result = 0.72
Sequence = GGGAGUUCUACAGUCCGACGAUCAUCAGAAAAACCAUAGUGAAGAAAAACUUAACUGAAUUGGCAAAGACUUUGGGGGCAGAAAACCCUAUAAGUAUAACCAAGAGGAAAGUUUUUCACUAAGAAUUUAGUUAUGGAAUUCUCGGGUGCCAA; result = 0.379
Sequence = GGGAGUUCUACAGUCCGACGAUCUAAUCUAGUUGGCAAAGGUGUGCGCUAAAACACGGAACCGAACAUGCAUUGAUUUGGAUAACUUUUGAGGGUUUUUGUCAAAUAGCAUGUGAAGAGUUACAUUUUUCUUAUGGAAUUCUCGGGUGCCAA; result = 1.28
Sequence = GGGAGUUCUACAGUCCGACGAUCCAUACAGAAGAGACAUCAGGGGUGUGGGUAAAAUUGUGUGUGUGCCUCCUUGACGUGGACAAUCACUAGACUCAGUGCUCUGAGAAAAUCUGCUAUUUCUGUUGAAUGGGUGGAAUUCUCGGGUGCCAA; result = 0.433
Sequence = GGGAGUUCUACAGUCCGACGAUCCCUGGGACUUCCCUGCAGUGAGAGAGCAUCUCCCCCUGGUCCAUGCCCCUCCUGUGCAGAAGGGAGCCUGCAUCCCUCCCUUCCUUUCUCUUACUGCCAUAGGAAAUUAUUGGAAUUCUCGGGUGCCAA; result = 1.62
Sequence = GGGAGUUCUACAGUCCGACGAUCUUGGUUCAGAAACAAGUUGUAUAUUUUUCACCCCUGAUUAUGGGAAAAAAAUCAGUUCUGUCUUUGUGGGUUGCUCUACUAUGGAGAUCAACAGUUACUGUGACUGAGUCUGGAAUUCUCGGGUGCCAA; result = 0.315
Sequence = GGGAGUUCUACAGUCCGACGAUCUGACCUCCCAGGAAGAAAAUAGCUUCUCCUACAGUGAUUCAUGUCCCAGGUCCAGGAAAUCCAAUGUUGGUGAAGGCAGCCACUCUCUUGCUUGUCCCCAAAUCACCUAAUGGAAUUCUCGGGUGCCAA; result = 0.596
Sequence = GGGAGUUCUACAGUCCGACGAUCGCCAGAAAAGGAAAGACACUGGGGGACUUCAACAGUUAAGCUCAAGUUGCCAAUUUGCUAUAAAUCCCUUUUGCCAUCAGUCUGCUUACAGUGAUAUAUAUAGUGUUCUUUGGAAUUCUCGGGUGCCAA; result = 0.381
Sequence = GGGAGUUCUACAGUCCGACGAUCUUUUGUGUUAAUAGAGUAUUGUUUUAGCAUGUGAUCAGAUCUUAAGAAAGAAAGAAAGAAAGACAGCAAAGCCUGAAUUCUUUUUGAGAGAUGGAGAUGAGGUACAUCAGUGGAAUUCUCGGGUGCCAA; result = 3.5

Series 2
Target: Sal-like protein 4, full length isoform A (SALL4, Homo sapiens, UniProt Q9UJQ4, residues 1-1053)
Chain of UniProt Q9UJQ4 (whole entry, looked up): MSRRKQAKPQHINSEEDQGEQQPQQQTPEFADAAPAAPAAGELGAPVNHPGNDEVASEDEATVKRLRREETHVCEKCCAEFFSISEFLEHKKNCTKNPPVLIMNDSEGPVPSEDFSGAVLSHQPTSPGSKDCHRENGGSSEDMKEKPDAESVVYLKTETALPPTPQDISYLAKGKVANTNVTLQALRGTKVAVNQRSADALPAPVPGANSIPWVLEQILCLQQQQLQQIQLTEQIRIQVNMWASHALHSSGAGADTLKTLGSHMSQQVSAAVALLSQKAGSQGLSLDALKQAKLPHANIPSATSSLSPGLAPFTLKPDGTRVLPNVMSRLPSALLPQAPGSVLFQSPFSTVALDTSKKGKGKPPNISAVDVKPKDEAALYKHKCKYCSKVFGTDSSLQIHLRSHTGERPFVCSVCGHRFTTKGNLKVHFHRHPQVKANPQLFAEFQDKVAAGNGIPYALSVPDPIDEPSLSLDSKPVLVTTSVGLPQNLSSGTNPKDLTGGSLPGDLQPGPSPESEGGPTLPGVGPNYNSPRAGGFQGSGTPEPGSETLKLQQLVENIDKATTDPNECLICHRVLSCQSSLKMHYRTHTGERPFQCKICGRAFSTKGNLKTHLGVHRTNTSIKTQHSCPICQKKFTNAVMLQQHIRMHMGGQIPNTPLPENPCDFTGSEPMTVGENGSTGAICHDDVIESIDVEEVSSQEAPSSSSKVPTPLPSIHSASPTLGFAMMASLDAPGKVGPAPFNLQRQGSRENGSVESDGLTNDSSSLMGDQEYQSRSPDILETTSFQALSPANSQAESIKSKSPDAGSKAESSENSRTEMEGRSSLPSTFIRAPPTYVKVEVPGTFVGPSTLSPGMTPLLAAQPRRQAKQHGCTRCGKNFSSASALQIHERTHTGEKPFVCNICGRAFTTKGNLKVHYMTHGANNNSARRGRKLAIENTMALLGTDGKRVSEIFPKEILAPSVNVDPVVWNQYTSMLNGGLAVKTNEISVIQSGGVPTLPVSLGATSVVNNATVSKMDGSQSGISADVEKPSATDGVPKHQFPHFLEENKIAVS
Technique: universal PBM
Molecule type: double-stranded DNA, one strand shown
Medium: in vitro
Tested at: 600 nM
Notes: 8-mer, flanks averaged, mean of replicates
Reading: higher = stronger binding
Quantity: E-score
Sequence = GCCTGTAC; result = -0.0297
Sequence = AAGCGGGA; result = -0.233
Sequence = ATTTATCC; result = 0.317
Sequence = CCCCATTC; result = -0.179
Sequence = GATGGCAC; result = -0.29
Sequence = GAATTGTC; result = 0.0187
Sequence = AAGGTAGC; result = -0.183
Sequence = ATTACCAC; result = 0.157
Sequence = CTAAAGGC; result = -0.0953
Sequence = ATTAGACG; result = 0.118
Sequence = ATTAAAAG; result = 0.22
Sequence = GGACTTCA; result = -0.0876
Sequence = CGGCGCTC; result = -0.313
Sequence = ATATTGTC; result = 0.331
Sequence = AGCTCCGA; result = -0.075

Series 3
Target: TAR DNA-binding protein 43, full length, His tag (TARDBP, Homo sapiens, UniProt Q13148, residues 1-414)
Technique: RNA Bind-n-Seq
Molecule type: RNA
Medium: in vitro
Tested at: 20 nM
Notes: 6-mer, flanks averaged, single round
Together with: 150 mM KCl
Relative to: input library
Reading: higher = stronger binding
Quantity: 6-mer enrichment (R)
Sequence = GUGCCG; result = 1.38
Sequence = UCUUGU; result = 0.637
Sequence = UAGUCA; result = 0.594
Sequence = AUCGGU; result = 0.725
Sequence = GUCUAA; result = 0.641
Sequence = GCGACC; result = 0.889
Sequence = AAAGAA; result = 0.743
Sequence = CUAGUG; result = 0.895
Sequence = UCAUUU; result = 0.602
Sequence = UUAGUA; result = 0.652
Sequence = UGUCUA; result = 0.609
Sequence = CCUAAA; result = 0.605
Sequence = GUGAUU; result = 0.8
Sequence = GGAUUC; result = 0.791

Further values, each from its own experiment
Molecule = PhoQ, residues 284 288 289 292 302 303 SVTLVV; target = PhoP, residues 12 14 15 18 19 GHCSL (Escherichia coli, UniProt P23836); test = Sort-seq, item: YFP reporter; test system = E. coli; setting = PhoQ-PhoP variant library, together with: 10 µM Mg2+; scale = relative to: high Mg2+ state, higher = stronger signaling; quantity = fold induction; result = 18

Excerpt of the above (series 2):
Sequence = ATTAAAAG; result = 0.22
Sequence = CTAAAGGC; result = -0.0953
Sequence = AGCTCCGA; result = -0.075
Sequence = ATATTGTC; result = 0.331
